{"data": "Assay results gathered from unrelated publications", "note": "Lines come from different studies, so protocols differ. “And” joins repeats or separate records; there may be more than shown. Numbers after ± are the reported error."}
{"SMILES": "CSCC[C@@H]1NC(=O)[C@H](C(C)C)NC(=O)[C@H](CCCNC(=N)N)NC(=O)[C@@H]2CCCN2C(=O)CNC(=O)[C@@H](NC(=O)CNC(=O)[C@H](CO)NC(=O)CNC(=O)[C@H](CO)NC(=S)Nc2ccc(C[C@H]3CN(CC(=O)O)CCN(CC(=O)O)CCN3CC(=O)O)cc2)CSSC[C@@H](C(N)=O)NC(=O)[C@@H]2CCCN2C(=O)CNC(=O)[C@H](CCC(=O)O)NC(=O)[C@H](CC(=O)O)NC(=O)[C@H](CC(=O)O)NC(=O)CNC(=O)[C@H](CC(C)C)NC(=O)[C@H](Cc2c[nH]cn2)NC(=O)[C@H](CC(C)C)NC(=O)CNC(=O)[C@H](Cc2c[nH]cn2)NC1=O [copper-64 labelled]", "test": "SE-HPLC", "system": "rat serum", "conditions": "concentration not given, 1 h, 37 °C", "endpoint": "albumin-bound radioactivity", "result": "3.3%"}
{"SMILES": "CCN(CC)CCOc1ccc(-c2nnn(Cc3ccc(OC)cc3)c2N)cc1", "test": "metabolic stability", "system": "rat, plasma", "endpoint": "half-life", "result": "> 0.259 days"}
{"SMILES": "CCN(Cc1ccccc1)C(=O)CCc1nc(CN2CCN(C(=O)Cc3ccc(OC)c(OC)c3)CC2)no1", "test": "rotarod test", "system": "mouse, CCI neuropathic pain model", "conditions": "5 mg/kg", "endpoint": "time to fall", "result": "1.56 ± 0.18 min"}
{"SMILES": "CSCC[C@H](NC(=O)[C@@H](NC(=O)[C@H](CC(C)C)NC(=O)[C@@H](NC(=O)[C@H](Cc1c[nH]cn1)NC(=O)CCCCCNC(=O)[C@H](CCCNC(=N)N)NC(=O)[C@H](CCCNC(=N)N)NC(=O)[C@H](CCCNC(=N)N)NC(=O)[C@H](CCC(N)=O)NC(=O)[C@H](CCCNC(=N)N)NC(=O)[C@H](CCCNC(=N)N)NC(=O)[C@H](CCCCN)NC(=O)[C@H](CCCCN)NC(=O)[C@H](CCCNC(=N)N)NC(=O)CNC(=O)[C@@H](N)Cc1ccc(O)cc1)C(C)C)C(C)C)C(=O)N[C@@H](CS)C(=O)N[C@@H](C)C(=O)N[C@H](C(N)=O)[C@@H](C)O", "system": "C57BL/6J mice", "conditions": "Alzet osmotic pump, 3 mg/kg, 8 weeks", "endpoint": "serum Globulin", "result": "1.6 g/dL and 1.9 g/dL and 1.5 g/dL"}
{"SMILES": "CC(C)=CCC/C(C)=C/CCn1cc(CC(C)(P(=O)(O)O)P(=O)(O)O)nn1", "system": "mouse CD-1, bile", "conditions": "intravenous, 0.3 mg/kg, 2 h", "endpoint": "concentration", "result": "3.83 ± 1.23 µg/mL"}
{"SMILES": "Cc1ccc(OCCN(C)C)cc1C(=O)N[C@H](C)c1cc(-c2cnn(C(F)F)c2)nc2ccccc12", "tested on": "Vero E6", "conditions": "3.906 µM", "endpoint": "viability", "result": "93.1% and 94.8%"}
{"SMILES": "CCCC[C@H]1C(=O)N(C)[C@@H](CCCC)C(=O)N[C@@H](CCCCNC(=S)Nc2ccc(CN3CCN(CC(=O)O)CCN(CC(=O)O)CC3)cc2)C(=O)N[C@H](C(=O)NCC(N)=O)CSCC(=O)N[C@@H](Cc2ccc(O)cc2)C(=O)N(C)[C@@H](C)C(=O)N[C@@H](CC(N)=O)C(=O)N2CCC[C@H]2C(=O)N[C@@H](Cc2cnc[nH]2)C(=O)N[C@@H](CCC(=O)O)C(=O)N2C[C@H](O)C[C@H]2C(=O)N[C@@H](Cc2c[nH]c3ccccc23)C(=O)N[C@@H](CO)C(=O)N[C@@H](Cc2cn(CC(=O)O)c3ccccc23)C(=O)N1C [fluorine-18 labelled]", "system": "huCD34 mice with A-375 melanoma, tumour", "conditions": "dose not given, 7 days, with: pembrolizumab 4 mg/kg", "scale": "baseline: pretreatment baseline", "endpoint": "change in tumour uptake", "result": "0.47 ± 0.41 %ID/cc"}
{"SMILES": "CC(C)(C)C(=O)OCOP(=O)(OCOC(=O)C(C)(C)C)C1CCCN(O)C1=O (centres unmarked)", "tested on": "OVCAR-4", "endpoint": "log GI50", "result": "-6.29 log M"}
{"SMILES": "COc1ccc([C@@H]2CC(=O)c3c(O)cc(O[C@@H]4O[C@H](CO)[C@@H](O)[C@H](O)[C@H]4O[C@@H]4O[C@@H](C)[C@H](O)[C@@H](O)[C@H]4O)cc3O2)cc1O", "system": "male Sprague-Dawley rats, obese, faeces", "conditions": "oral, 100 mg/kg, 48 h", "endpoint": "cumulative faecal excretion", "result": "13000 ± 1230 ng"}
{"SMILES": "N#[11C]c1ccc(-c2csc(NN=C3CCCC3)n2)cc1", "test": "dynamic PET/CT", "system": "C57BL/6 mouse, liver", "conditions": "intravenous, dose not given, 5 min", "endpoint": "peak radioactivity uptake", "result": "2.3 SUV"}
{"SMILES": "Cc1cc(-c2ccc3ccccc3c2)nnc1NCCN1CCN(C)CC1", "test": "metabolic stability", "system": "rat, liver microsomes", "conditions": "20 min", "endpoint": "compound remaining", "result": "88.5%"}
{"SMILES": "O=C1NC2(CC2)COc2ncc(F)cc2[C@H]2COCCN2c2ccn3ncc1c3n2", "system": "Sprague-Dawley rat, male, kidneys", "conditions": "oral, 2.5 mg/kg/day, 4 weeks, end of treatment", "endpoint": "organ-to-brain weight ratio", "result": "147 ± 11.7%"}
{"SMILES": "CC1(C)C(=O)N(c2ccc(C#N)c(C(F)(F)F)c2)C(=S)N1c1ccc(C(=O)O)c(F)c1", "system": "male human, plasma", "conditions": "oral, 80 mg, single dose, fasted", "endpoint": "MRT", "result": "12.4 days"}
{"SMILES": "Cc1ccc(OC[C@@H]2CCCN2C)cc1C(=O)N[C@H](C)c1cc(-c2cnn(C)c2)nc2ccccc12", "tested on": "African green monkey cells", "conditions": "125 µM", "endpoint": "viability", "result": "4.9%"}
{"SMILES": "CC(C)C[C@H](NC(=O)[C@H](Cc1ccc(O)cc1)NC(=O)[C@H](Cc1c[nH]cn1)NC(=O)[C@H](CC(N)=O)NC(=O)[C@H](CC(C)C)NC(=O)[C@H](C)NC(=O)[C@H](CC(C)C)NC(=O)CNC(=O)CNC(=O)[C@@H](NC(=O)[C@@H](NC(=O)[C@H](CCCCN)NC(=O)CNC(=O)[C@@H](NC(=O)[C@H](CCCCN)NC(=O)[C@H](CCCCN)NC(=O)[C@H](C)NC(=O)[C@H](CCCCN)NC(=O)[C@H](CCCNC(=N)N)NC(=O)[C@H](Cc1ccccc1)NC(=O)[C@H](Cc1c[nH]c2ccccc12)NC(=O)[C@H](CC(=O)O)NC(=O)[C@H](CCCCN)NC(=O)[C@H](Cc1c[nH]c2ccccc12)NC(=O)CN)C(C)C)[C@@H](C)O)C(C)C)C(N)=O", "system": "zebrafish embryos 4 hpf, E3 medium", "conditions": "1 h", "endpoint": "acute toxic concentration", "result": "5 µM"}
{"SMILES": "CC(C)[C@@H]1NC(=O)CNC(=O)[C@H](CC(N)=O)NC(=O)[C@H](CCCNC(=N)N)NC(=O)[C@H](Cc2ccc(O)cc2)NC(=O)[C@H](C(C)C)NC(=O)[C@@H](NC(=O)[C@@H](NC(=O)[C@H](CC(N)=O)NC(=O)[C@H](Cc2c[nH]c3ccccc23)NC(=O)[C@H](C)NC(=O)[C@H](Cc2ccccc2)NC(=O)CNC(=O)[C@H](CCCCN)NC(=O)[C@H](Cc2ccccc2)NC(=O)[C@H](Cc2ccccc2)NC(=O)[C@H](CCCCN)NC(=O)OCC2c3ccccc3-c3ccccc32)C(C)C)CSSC[C@@H](C(=O)N[C@@H](Cc2c[nH]cn2)C(=O)N[C@@H](CCCNC(=N)N)C(=O)N[C@@H](CCCNC(=N)N)C(=O)N[C@@H](C)C(=O)N[C@@H](CC(N)=O)C(N)=O)NC(=O)[C@H](C(C)C)NC(=O)[C@H](CCCNC(=N)N)NC1=O", "system": "ICR mice, blood", "conditions": "intraperitoneal, 5 mg/kg, day 5", "endpoint": "platelet distribution width", "result": "16 ± 0.31%"}
{"SMILES": "COc1ccccc1-c1n[nH]c2nc(N[C@H]3CC[C@H](NS(=O)(=O)CC(C)C)CC3)ncc12", "test": "bead binding, competition bead pull-down, item: LINJ.26.0790", "system": "Leishmania donovani extract", "conditions": "10 µM", "scale": "baseline: vehicle", "endpoint": "relative abundance", "result": 0.86}
{"SMILES": "Cc1ccccc1/N=N/c1ccc2[nH]cc(CCN(C)C)c2c1", "test": "light irradiation", "system": "solution", "conditions": "with: light 530 nm", "endpoint": "trans isomer at photostationary state", "result": "67%"}
{"SMILES": "CC[C@H](C)[C@H](NC(=O)[C@H](C)NC(=O)[C@H](CCCCN)NC(=O)[C@H](CC(C)C)NC(=O)[C@@H](N)Cc1ccccc1)C(=O)N[C@@H](CCCCN)C(=O)N[C@@H](CCCCN)C(=O)N[C@@H](Cc1ccccc1)C(=O)NCC(=O)N[C@@H](CCCCN)C(=O)N[C@@H](CCC(=O)O)C(=O)N[C@@H](Cc1ccccc1)C(=O)N[C@@H](CCCCN)C(=O)N[C@@H](CCCCN)C(=O)N[C@H](C(=O)NCC(=O)N[C@@H](C)C(=O)N[C@@H](CCCCN)C(=O)N[C@@H](CC(C)C)C(=O)N[C@@H](CCCCN)C(=O)O)[C@@H](C)CC", "system": "human red blood cells", "conditions": "64 mg/L, 1 h, mean of replicates", "endpoint": "hemolysis", "result": "0.551%"}
{"SMILES": "Oc1c(Br)cc(Br)c2nc3ccccc3nc12", "test": "haemolysis", "conditions": "200 µM", "endpoint": "haemolysis", "result": "≤ 1%"}
{"SMILES": "CS(=O)(=O)c1cc(Cl)cc(-c2cc(Cl)c(Cl)cc2Cl)c1Cl", "test": "ultrafiltration", "system": "cow milk whey", "conditions": "500 nM nominal in whole milk", "endpoint": "dose fraction in permeate", "result": "41.1%"}
{"SMILES": "CC[C@H](C)[C@H](NC(=O)[C@H](CCCCN)NC(=O)CNC(=O)[C@H](CC(C)C)NC(=O)[C@H](Cc1ccccc1)NC(=O)[C@H](CCCCN)NC(=O)[C@H](CO)NC(=O)[C@H](Cc1ccccc1)NC(=O)[C@H](Cc1c[nH]c2ccccc12)NC(=O)[C@H](CCC(N)=O)NC(=O)[C@@H](NC(=O)[C@H](Cc1ccccc1)NC(=O)CCCCCNC(=O)CN1CCN(CC(=O)O)CCN(CC(=O)O)CCN(CC(=O)O)CC1)C(C)C)C(=O)N[C@@H](CCC(=O)O)C(=O)N1CCC[C@H]1C(=O)N[C@@H](CC(=O)O)C(=O)N[C@H](C(=O)N[C@@H](CO)C(=O)N[C@@H](CCC(N)=O)C(=O)N[C@H](C(=O)N[C@@H](CCC(N)=O)C(=O)N[C@@H](CC(=O)O)C(=O)N1CCC[C@H]1C(=O)N[C@@H](CC(N)=O)C(=O)N[C@@H](CC(=O)O)C(=O)N[C@@H](CCC(N)=O)C(=O)N[C@@H](Cc1ccc(O)cc1)C(=O)N[C@@H](CCC(=O)O)C(=O)N1CCC[C@H]1C(=O)N[C@@H](Cc1ccccc1)C(=O)O)C(C)C)C(C)C [copper-64 labelled]", "system": "C57BL/6 mice, kidneys", "conditions": "vehicle, intratracheal instillation", "endpoint": "tissue uptake", "result": "20.6 ± 2.9 %ID/g"}
{"SMILES": "COc1ccccc1-c1n[nH]c2nc(NC3CCN(C(=O)Cc4ccc(F)cc4F)CC3)ncc12", "test": "bead binding, competition bead pull-down, item: LINJ.25.1790", "system": "Leishmania donovani axenic amastigote extract", "conditions": "10 µM", "scale": "baseline: vehicle", "endpoint": "relative abundance", "result": 0.63}
